Results of several laboratories.
Every numbered part comes from another study and shows a few of its results, in no order. Several values in a cell are separate wells, animals, samples, runs or records.
Sequence of UniProt P36894 (whole entry, looked up): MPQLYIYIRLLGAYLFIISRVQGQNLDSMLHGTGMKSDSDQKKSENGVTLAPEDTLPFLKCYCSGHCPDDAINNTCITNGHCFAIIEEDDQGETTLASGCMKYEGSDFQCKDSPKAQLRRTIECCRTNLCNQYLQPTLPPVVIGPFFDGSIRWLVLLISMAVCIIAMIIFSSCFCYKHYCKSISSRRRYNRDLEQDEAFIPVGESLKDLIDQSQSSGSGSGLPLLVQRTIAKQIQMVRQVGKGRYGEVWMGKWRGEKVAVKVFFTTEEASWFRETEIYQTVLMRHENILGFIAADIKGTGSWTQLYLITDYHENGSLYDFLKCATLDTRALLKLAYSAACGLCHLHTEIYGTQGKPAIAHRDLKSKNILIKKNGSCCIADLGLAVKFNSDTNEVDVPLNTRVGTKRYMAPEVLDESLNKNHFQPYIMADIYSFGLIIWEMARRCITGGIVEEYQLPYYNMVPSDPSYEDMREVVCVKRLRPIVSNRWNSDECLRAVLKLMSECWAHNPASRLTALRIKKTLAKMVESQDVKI
Sequence of UniProt O14965 (whole entry, looked up): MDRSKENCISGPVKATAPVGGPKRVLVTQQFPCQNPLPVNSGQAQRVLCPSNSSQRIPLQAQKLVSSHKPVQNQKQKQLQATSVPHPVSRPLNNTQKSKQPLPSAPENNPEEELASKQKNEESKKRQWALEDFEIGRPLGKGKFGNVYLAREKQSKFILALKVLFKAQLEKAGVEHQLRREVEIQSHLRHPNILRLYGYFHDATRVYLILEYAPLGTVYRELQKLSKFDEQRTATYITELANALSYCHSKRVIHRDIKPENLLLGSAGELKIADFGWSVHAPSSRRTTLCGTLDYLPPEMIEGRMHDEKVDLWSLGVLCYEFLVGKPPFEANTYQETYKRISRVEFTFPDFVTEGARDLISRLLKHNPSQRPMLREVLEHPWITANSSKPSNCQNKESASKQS
Sequence of UniProt Q8TDX7 (whole entry, looked up): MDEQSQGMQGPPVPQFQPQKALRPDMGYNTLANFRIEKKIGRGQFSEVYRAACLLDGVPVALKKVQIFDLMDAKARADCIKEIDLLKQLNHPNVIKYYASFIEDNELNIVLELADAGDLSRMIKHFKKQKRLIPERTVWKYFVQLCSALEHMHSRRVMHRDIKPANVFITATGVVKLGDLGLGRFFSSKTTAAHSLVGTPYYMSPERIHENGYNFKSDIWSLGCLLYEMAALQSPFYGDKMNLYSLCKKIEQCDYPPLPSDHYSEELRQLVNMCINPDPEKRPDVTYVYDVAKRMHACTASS
Sequence of UniProt Q9Y616 (whole entry, looked up): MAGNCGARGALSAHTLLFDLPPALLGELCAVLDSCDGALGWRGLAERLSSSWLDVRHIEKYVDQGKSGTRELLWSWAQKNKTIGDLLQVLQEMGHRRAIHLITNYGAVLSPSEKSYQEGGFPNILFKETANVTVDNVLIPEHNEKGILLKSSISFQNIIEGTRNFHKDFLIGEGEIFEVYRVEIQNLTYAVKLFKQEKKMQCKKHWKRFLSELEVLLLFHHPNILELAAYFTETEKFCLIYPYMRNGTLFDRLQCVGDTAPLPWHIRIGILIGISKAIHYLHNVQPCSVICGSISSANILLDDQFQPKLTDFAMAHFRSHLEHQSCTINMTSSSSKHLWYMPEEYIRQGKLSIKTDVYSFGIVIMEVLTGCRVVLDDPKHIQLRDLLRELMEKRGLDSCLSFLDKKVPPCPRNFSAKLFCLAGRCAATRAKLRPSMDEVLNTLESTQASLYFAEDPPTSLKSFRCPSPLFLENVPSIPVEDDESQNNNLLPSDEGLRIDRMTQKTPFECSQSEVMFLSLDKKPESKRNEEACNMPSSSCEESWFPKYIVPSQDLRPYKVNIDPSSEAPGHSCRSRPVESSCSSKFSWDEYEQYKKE
Sequence of UniProt P27037 (whole entry, looked up): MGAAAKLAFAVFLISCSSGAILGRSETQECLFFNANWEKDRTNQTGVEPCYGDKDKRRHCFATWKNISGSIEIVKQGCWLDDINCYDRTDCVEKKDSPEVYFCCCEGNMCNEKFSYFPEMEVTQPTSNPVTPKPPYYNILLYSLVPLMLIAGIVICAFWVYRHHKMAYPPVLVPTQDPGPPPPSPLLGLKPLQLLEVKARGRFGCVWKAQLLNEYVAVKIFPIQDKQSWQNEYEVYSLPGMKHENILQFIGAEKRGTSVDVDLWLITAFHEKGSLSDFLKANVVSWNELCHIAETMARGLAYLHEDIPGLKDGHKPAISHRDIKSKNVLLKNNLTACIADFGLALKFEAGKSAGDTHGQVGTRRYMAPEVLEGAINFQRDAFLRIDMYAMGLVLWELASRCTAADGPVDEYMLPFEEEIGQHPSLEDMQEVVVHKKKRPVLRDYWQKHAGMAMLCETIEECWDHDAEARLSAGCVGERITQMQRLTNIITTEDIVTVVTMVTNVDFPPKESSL
Sequence of UniProt O14976 (whole entry, looked up): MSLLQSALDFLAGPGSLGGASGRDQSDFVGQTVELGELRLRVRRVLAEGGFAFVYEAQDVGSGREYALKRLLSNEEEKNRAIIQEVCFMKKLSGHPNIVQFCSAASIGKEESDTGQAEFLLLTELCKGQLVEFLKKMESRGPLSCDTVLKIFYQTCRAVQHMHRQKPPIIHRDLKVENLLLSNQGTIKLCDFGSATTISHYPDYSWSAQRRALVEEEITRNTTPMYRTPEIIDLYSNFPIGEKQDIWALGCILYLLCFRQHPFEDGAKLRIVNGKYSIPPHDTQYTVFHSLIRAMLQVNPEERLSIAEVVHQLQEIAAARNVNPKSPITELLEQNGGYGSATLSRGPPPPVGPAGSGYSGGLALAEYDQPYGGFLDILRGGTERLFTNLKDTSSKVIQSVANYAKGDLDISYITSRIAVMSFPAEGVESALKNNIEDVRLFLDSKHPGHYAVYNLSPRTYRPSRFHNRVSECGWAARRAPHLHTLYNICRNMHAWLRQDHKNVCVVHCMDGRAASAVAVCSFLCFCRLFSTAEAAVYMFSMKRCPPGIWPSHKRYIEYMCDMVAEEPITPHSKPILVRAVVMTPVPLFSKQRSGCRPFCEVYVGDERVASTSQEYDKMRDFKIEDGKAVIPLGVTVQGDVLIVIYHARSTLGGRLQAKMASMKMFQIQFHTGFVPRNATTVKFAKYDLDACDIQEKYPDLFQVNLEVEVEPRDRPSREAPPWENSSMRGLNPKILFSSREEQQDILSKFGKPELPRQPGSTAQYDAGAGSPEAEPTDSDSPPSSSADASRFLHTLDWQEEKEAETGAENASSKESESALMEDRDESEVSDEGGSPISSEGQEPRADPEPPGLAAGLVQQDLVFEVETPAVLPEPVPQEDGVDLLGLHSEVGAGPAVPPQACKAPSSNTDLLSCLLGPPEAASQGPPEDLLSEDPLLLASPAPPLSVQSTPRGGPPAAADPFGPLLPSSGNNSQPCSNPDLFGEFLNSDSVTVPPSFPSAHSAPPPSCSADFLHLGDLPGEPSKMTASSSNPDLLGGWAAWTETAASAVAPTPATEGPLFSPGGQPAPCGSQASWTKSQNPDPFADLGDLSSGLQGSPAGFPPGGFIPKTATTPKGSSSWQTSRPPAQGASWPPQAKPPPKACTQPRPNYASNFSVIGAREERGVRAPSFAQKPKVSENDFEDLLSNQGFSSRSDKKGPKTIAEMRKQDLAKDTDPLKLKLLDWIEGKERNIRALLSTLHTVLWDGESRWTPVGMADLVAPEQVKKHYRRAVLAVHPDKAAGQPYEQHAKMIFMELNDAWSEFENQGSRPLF
Sequence of UniProt P51817 (whole entry, looked up): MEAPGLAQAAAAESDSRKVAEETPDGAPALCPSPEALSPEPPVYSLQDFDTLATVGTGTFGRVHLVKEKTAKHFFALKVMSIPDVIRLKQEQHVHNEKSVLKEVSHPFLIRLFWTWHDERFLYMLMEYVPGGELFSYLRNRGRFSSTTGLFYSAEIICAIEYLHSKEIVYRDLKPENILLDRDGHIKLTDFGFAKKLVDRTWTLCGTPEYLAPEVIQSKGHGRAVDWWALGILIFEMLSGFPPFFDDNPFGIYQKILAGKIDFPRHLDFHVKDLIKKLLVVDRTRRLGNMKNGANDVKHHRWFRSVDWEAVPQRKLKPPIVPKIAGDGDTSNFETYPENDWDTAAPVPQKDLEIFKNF

Block 1
Organism: Sarcocystis neurona
Effect on: parasite activity
Tested at: 10 µM
Time: 96 h
Under activity class, `CN1CCN(CCCN2c3ccccc3Sc3ccc(Cl)cc32)CC1` is recorded as “inactive”.
Under activity class, `CC(C)(O)c1ccccc1CC[C@@H](SCC1(CC(=O)O)CC1)c1cccc(/C=C/c2ccc3ccc(Cl)cc3n2)c1` is recorded as “inactive”.
For `COc1cc(C)c(Cc2cnc(N)nc2N)cc1OC`, activity class read “inactive”.
`Cc1ccc(N(CC2=NCCN2)c2cccc(O)c2)cc1` — result for activity class: “inactive”.
`CC(C)NCC(O)c1ccc(NS(C)(=O)=O)cc1` (centres unmarked) — result for activity class: “inactive”.
`O=C(c1ccc(F)cc1)C1CCN(CCn2c(=S)[nH]c3ccccc3c2=O)CC1` — result for activity class: “active”.
Under activity class, `CN(C)CCC=C1c2ccccc2CCc2ccccc21` is recorded as “inactive”.
For `C[C@H](CCC(=O)O)[C@H]1CC[C@H]2[C@@H]3C(=O)C[C@@H]4CC(=O)CC[C@]4(C)[C@H]3CC(=O)[C@]12C`, activity class read “inactive”.
`CC(COc1ccccc1)N(CCCl)Cc1ccccc1` (centres unmarked): activity class “inactive”.

Block 2
Target: Mitogen-activated protein kinase kinase kinase kinase 5 (MAP4K5, Homo sapiens, UniProt Q9Y4K4)
Sequence of UniProt Q9Y4K4 (whole entry, looked up): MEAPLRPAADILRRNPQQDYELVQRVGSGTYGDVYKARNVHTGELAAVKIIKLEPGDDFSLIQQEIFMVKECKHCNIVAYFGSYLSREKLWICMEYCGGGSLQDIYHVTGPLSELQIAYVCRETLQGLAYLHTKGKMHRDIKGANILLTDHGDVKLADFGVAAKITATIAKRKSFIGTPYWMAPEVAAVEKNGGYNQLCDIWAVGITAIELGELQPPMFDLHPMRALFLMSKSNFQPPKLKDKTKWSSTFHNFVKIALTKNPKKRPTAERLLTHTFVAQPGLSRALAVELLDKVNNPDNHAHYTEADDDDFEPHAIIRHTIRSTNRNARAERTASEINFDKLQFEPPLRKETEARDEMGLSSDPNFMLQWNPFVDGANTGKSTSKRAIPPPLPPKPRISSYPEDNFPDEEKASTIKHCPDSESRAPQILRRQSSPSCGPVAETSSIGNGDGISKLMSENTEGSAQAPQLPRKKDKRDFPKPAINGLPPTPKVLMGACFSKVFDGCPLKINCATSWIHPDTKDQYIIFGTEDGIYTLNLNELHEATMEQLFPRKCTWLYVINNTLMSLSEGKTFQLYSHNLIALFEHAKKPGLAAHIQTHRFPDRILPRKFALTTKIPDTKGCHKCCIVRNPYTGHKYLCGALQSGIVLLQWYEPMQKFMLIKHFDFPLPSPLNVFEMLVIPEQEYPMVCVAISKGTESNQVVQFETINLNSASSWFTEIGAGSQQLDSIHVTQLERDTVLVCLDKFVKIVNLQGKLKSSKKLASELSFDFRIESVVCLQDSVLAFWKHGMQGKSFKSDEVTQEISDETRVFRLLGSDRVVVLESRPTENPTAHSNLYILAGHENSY
Effect on: enzyme activity
Action: inhibitor
Tested at: 0.5 µM
Baseline: control
The remaining activity of `Cc1ccc(NC2=CC(=O)c3sc(C)nc3C2=O)cc1` is reported as 96.9%.
`N#CC(=C(N)Sc1ccc(N)cc1)c1ccccc1C(F)(F)F` gave a remaining activity of 94%.
For `Fc1ccc(-c2nc3n(c2-c2ccncc2)CCS3)cc1`, the remaining activity was 98.7%.
`Cc1cc(Nc2nc(-c3ccccc3)nc3ccccc23)n[nH]1` has a remaining activity of 20.2%.
`Nc1nccc(-c2c(-c3ccc(F)cc3)ncn2C2CCNCC2)n1` gave a remaining activity of 68.1%.
`CCc1[nH]c(-c2ccc(OC)cc2)nc1-c1ccncc1` has a remaining activity of 106%.
`O=C1NC(=O)C(c2c[nH]c3ccccc23)=C1c1c[nH]c2ccccc12` gave a remaining activity of 87.1%.
The remaining activity of `CC#CC(=O)Nc1cc2c(Nc3ccc(F)c(Cl)c3)ncnc2cn1` is reported as 100%.
With `CC(=O)c1ccc(N2CCOCC2)cc1O` the remaining activity was 102%.
`Oc1ccc(Nc2nc(-c3ccc(Cl)cc3)cs2)cc1` gave a remaining activity of 110%.
`Nc1ncnc2c1cnn2-c1ccccc1` gave a remaining activity of 87.2%.
For `COc1ccc(S(=O)(=O)N(CCO)c2ccccc2CN(C)CC=Cc2ccc(Cl)cc2)cc1`, the remaining activity was 99.7%.
`NC(=O)c1ccc(N(C(N)=O)c2c(F)cccc2F)nc1-c1ccc(F)cc1F` has a remaining activity of 98.3%.
For `O=C1Cc2c([nH]c3ccc([N+](=O)[O-])cc23)-c2ccccc2N1`, the remaining activity was 15.9%.
With `CC(C)(C)n1nc(Cc2cccc3ccccc23)c2c(N)ncnc21` the remaining activity was 53.9%.
The remaining activity of `Cc1cncc2cccc(S(=O)(=O)N3CCCN(C(=O)CN)C[C@@H]3C)c12` is reported as 103%.
The remaining activity of `CSc1nc(-c2ccnc(N[C@@H](C)c3ccccc3)c2)c(-c2ccc(F)cc2)[nH]1` (racemic) is reported as 85.6%.
With `COc1cc(Nc2c(C#N)cnc3cc(OCCCN4CCN(C)CC4)c(OC)cc23)c(Cl)cc1Cl` the remaining activity was 1.73%.
For `CC[n+]1c(/C=C/N(C)c2ccccc2)n(-c2ccccc2)c2ccc(-c3nc4ccccc4s3)cc21`, the remaining activity was 91.7%.
`O=S(=O)(NCCNC/C=C/c1ccc(Br)cc1)c1cccc2cnccc12` gave a remaining activity of 30.9%.
For `Nc1nc(Nc2ccc(S(N)(=O)=O)cc2)nn1C(=O)c1c(F)cccc1F`, the remaining activity was 45.3%.
With `CCCC(=O)Oc1ccc2[nH]c(C(=O)c3cc4ccccc4[nH]3)cc2c1` the remaining activity was 88%.

Block 3
Cell line: mouse MPNST tumor cells
Method: high-content nuclear imaging
Measured: cell number
Tested at: 10 µM
Time: 12 h
Notes: mean of 2 replicates
Baseline: plate mean
Direction: higher = more cells
For `CN1C(=O)C(Cc2c[nH]c3ccccc23)NC1=S` (centres unmarked), the nuclei count was -0.0183 z-score.
`CC(=O)N1CCN(C(=O)/C=C/c2ccc(Sc3ccccc3C(C)C)c([N+](=O)[O-])c2)CC1` gave a nuclei count of 1.6 z-score.
`CC(C)C(=O)OCC(=O)[C@@]12O[C@H](C3CCCCC3)O[C@@H]1C[C@H]1[C@@H]3CCC4=CC(=O)C=C[C@]4(C)[C@H]3[C@@H](O)C[C@@]12C` has a nuclei count of 6.76 z-score.
`O=c1onc2n1-c1cc(Br)ccc1OC2` gave a nuclei count of 0.27 z-score.
The nuclei count of `COc1cc2c(CCNC(C)=O)c[nH]c2cc1Cl` is reported as 1.13 z-score.
With `Cc1nnc2c3ccccc3c(N[C@@H](C)[C@H](c3ccccc3)N(C)C)nn12` the nuclei count was 2.28 z-score and 0.0583 z-score.
For `C[C@H]1COc2c(N3CCN(C)CC3)c(F)cc3c(=O)c(C(=O)O)cn1c23`, the nuclei count was 1.62 z-score.
The nuclei count of `Cc1cn([C@H]2C=C[C@@H](CO)O2)c(=O)[nH]c1=O` is reported as 0.792 z-score and 0.309 z-score.
The nuclei count of `O=C(Nc1ccccc1)OCC(CN1CCCCC1)OC(=O)Nc1ccccc1` (centres unmarked) is reported as 1.7 z-score.
With `CNc1nc(NCc2ccc(NS(C)(=O)=O)cc2Cl)cc(-c2ccccn2)n1` the nuclei count was -1.46 z-score.
The nuclei count of `CCOC(=O)CSc1nc2c(sc3ccccc32)c(=O)n1CCCN1CCCC1` is reported as -0.152 z-score.

Block 4
SMILES: CC(=O)c1c(NS(C)(=O)=O)c2cc(-c3ccc(Cl)cc3)c(-c3ccc(Cl)cc3Cl)nc2n(C)c1=O
Tested at: 1 µM
The remaining binding was 100% (IRAK3 (Homo sapiens, UniProt Q9Y616); cell-free assay, competition with immobilised ligand).
For CAMK2D (Homo sapiens, UniProt Q13557); cell-free assay, competition with immobilised ligand: remaining binding read 100%.
It gave 92% for remaining binding (STK39 (Homo sapiens, UniProt Q9UEW8); cell-free assay, competition with immobilised ligand).
It gave 100% for remaining binding (NEK7 (Homo sapiens, UniProt Q8TDX7); cell-free assay, competition with immobilised ligand).
The remaining binding was 100% (DAPK3 (Homo sapiens, UniProt O43293); cell-free assay, competition with immobilised ligand).
The remaining binding was 95% (BMPR1A (Homo sapiens, UniProt P36894); cell-free assay, competition with immobilised ligand).
It gave 93% for remaining binding (PIK3C3 (Homo sapiens, UniProt Q8NEB9); cell-free assay, competition with immobilised ligand).
It gave 97% for remaining binding (PRKX (Homo sapiens, UniProt P51817); cell-free assay, competition with immobilised ligand).
For GAK (Homo sapiens, UniProt O14976); cell-free assay, competition with immobilised ligand: remaining binding read 100%.
It gave 100% for remaining binding (CSNK1E (Homo sapiens, UniProt P49674); cell-free assay, competition with immobilised ligand).
The remaining binding was 100% (MAP2K6 (Homo sapiens, UniProt P52564); cell-free assay, competition with immobilised ligand).
For SIK1 (Homo sapiens, UniProt P57059); competition binding: remaining binding read 100%.
It gave 100% for remaining binding (ACVR2A (Homo sapiens, UniProt P27037); cell-free assay, competition with immobilised ligand).
The remaining binding was 96% (RIOK3 (Homo sapiens, UniProt O14730); cell-free assay, competition with immobilised ligand).
For Aurora kinase A (AURKA, Homo sapiens, UniProt O14965); cell-free assay, competition with immobilised ligand: remaining binding read 87%.
For Cyclin-dependent kinase 4, with cyclin D3 (CDK4, Homo sapiens, UniProt P11802); cell-free assay, competition with immobilised ligand: remaining binding read 94%.
It gave 89% for remaining binding (EGFR (Homo sapiens, UniProt P00533, L858R/T790M); cell-free assay, competition with immobilised ligand).

Excerpt of the above (block 1):
`CC(COc1ccccc1)N(CCCl)Cc1ccccc1` (centres unmarked): activity class “inactive”.
For `COc1cc(C)c(Cc2cnc(N)nc2N)cc1OC`, activity class read “inactive”.
`O=C(c1ccc(F)cc1)C1CCN(CCn2c(=S)[nH]c3ccccc3c2=O)CC1` — result for activity class: “active”.
For `C[C@H](CCC(=O)O)[C@H]1CC[C@H]2[C@@H]3C(=O)C[C@@H]4CC(=O)CC[C@]4(C)[C@H]3CC(=O)[C@]12C`, activity class read “inactive”.
Under activity class, `CN(C)CCC=C1c2ccccc2CCc2ccccc21` is recorded as “inactive”.
`CC(C)NCC(O)c1ccc(NS(C)(=O)=O)cc1` (centres unmarked) — result for activity class: “inactive”.
Under activity class, `CC(C)(O)c1ccccc1CC[C@@H](SCC1(CC(=O)O)CC1)c1cccc(/C=C/c2ccc3ccc(Cl)cc3n2)c1` is recorded as “inactive”.
